Assay results gathered from unrelated publications.
Parts stem from different laboratories: compare values within a part only.
Chain of UniProt P11362 (whole entry, looked up): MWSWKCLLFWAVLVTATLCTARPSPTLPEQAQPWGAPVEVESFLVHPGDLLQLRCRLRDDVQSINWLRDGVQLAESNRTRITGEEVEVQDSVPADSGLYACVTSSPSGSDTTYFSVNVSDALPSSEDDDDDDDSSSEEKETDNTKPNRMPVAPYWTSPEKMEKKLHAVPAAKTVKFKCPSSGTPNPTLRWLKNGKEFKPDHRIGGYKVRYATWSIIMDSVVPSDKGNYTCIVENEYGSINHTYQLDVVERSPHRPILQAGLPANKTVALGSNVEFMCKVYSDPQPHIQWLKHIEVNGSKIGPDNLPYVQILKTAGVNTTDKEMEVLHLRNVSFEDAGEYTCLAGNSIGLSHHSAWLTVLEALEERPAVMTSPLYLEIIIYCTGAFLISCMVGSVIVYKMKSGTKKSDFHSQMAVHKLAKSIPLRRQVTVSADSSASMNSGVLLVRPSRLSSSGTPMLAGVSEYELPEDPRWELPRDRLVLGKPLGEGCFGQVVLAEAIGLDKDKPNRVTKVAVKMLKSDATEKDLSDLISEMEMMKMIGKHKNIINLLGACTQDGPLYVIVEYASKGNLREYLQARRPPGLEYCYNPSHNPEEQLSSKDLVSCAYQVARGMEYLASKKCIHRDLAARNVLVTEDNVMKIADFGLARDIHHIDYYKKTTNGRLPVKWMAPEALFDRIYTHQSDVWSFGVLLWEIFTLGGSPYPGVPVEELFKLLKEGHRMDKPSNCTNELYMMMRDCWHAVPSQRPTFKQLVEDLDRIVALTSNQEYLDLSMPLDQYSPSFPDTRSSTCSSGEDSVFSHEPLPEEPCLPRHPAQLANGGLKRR
Chain of UniProt Q9BWU1 (whole entry, looked up): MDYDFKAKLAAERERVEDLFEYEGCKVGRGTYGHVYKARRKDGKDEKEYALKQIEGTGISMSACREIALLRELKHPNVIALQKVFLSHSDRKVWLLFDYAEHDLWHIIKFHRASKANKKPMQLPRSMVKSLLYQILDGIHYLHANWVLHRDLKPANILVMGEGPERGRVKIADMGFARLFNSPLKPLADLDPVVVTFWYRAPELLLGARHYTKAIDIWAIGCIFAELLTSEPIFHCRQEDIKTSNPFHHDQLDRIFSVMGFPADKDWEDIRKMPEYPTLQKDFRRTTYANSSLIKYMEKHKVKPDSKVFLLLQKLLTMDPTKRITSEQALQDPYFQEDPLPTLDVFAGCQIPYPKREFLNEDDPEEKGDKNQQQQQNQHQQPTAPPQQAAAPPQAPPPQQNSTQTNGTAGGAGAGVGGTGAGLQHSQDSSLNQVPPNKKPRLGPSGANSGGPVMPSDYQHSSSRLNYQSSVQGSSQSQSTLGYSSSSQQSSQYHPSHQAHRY
Chain of UniProt Q8TF76 (whole entry, looked up): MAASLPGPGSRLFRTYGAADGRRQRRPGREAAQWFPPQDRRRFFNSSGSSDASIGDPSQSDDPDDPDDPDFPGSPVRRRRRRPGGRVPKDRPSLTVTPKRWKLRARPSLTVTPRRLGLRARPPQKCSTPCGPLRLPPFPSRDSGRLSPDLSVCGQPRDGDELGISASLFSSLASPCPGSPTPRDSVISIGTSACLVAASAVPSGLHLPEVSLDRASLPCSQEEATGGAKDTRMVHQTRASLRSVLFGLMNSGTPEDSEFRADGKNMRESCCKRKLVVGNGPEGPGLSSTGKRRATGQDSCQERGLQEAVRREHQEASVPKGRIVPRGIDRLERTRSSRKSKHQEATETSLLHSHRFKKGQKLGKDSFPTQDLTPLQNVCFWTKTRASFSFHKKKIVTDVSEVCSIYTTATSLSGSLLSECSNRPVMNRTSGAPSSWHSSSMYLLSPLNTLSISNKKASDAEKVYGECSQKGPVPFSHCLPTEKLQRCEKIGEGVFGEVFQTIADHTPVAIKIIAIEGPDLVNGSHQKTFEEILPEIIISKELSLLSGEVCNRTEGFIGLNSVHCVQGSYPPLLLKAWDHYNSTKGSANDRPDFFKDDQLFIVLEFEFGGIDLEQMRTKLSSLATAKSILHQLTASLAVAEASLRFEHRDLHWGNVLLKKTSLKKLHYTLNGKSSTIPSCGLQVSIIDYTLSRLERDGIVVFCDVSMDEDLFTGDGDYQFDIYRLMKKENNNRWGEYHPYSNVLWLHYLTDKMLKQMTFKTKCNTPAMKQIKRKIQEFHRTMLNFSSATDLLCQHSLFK
Chain of UniProt Q15831 (whole entry, looked up): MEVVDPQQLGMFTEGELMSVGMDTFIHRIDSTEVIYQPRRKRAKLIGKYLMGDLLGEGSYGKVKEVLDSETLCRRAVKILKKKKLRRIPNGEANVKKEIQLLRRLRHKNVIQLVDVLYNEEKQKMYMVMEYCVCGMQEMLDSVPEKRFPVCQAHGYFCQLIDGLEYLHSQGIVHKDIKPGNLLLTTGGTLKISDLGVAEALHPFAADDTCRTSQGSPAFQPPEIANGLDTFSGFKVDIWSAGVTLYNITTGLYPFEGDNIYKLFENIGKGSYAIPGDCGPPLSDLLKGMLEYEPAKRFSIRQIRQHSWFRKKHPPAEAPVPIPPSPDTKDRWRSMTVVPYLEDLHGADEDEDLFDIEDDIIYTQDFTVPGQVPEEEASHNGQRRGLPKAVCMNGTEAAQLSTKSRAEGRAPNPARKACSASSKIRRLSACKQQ

Series 1
SMILES: CN([C@@H]1CCc2c(CC(=O)O)c3ccccc3n2C1)S(=O)(=O)c1ccc(F)cc1
Concentration: 1 µM
Quantity: remaining binding
target = HASPIN (Homo sapiens, UniProt Q8TF76); assay = cell-free assay, competition with immobilised ligand; result = 100%
target = CDK19 (Homo sapiens, UniProt Q9BWU1); assay = competition binding; result = 94%
target = FGFR1 (Homo sapiens, UniProt P11362); assay = cell-free assay, competition with immobilised ligand; result = 100%
target = STK11 (Homo sapiens, UniProt Q15831); assay = cell-free assay, competition with immobilised ligand; result = 56%

Series 2
Target: Receptor tyrosine-protein kinase erbB-2 (ERBB2, Homo sapiens, UniProt P04626)
Effect on: enzyme activity
Mode: inhibitor
Concentration: 0.5 µM
Relative to: control
Quantity: remaining activity
Structure (SMILES) = CO[C@H]1C[C@@H]2CC[C@@H](C)[C@@](O)(O2)C(=O)C(=O)N2CCCC[C@H]2C(=O)O[C@H]([C@H](C)C[C@@H]2CC[C@@H](O)[C@H](OC)C2)CC(=O)[C@H](C)/C=C(\C)[C@@H](O)[C@@H](OC)C(=O)[C@H](C)C[C@H](C)/C=C/C=C/C=C/1C; result = 97.3%
Structure (SMILES) = COc1cc2ncnc(Nc3ccc(Oc4ccccc4)cc3)c2cc1OC; result = 29.5%
Structure (SMILES) = CN(C)c1ccc(C=C2C(=O)Nc3ccccc32)cc1; result = 91%
Structure (SMILES) = COc1ccc(OC)c2c(=S)c3ccccc3[nH]c12; result = 93.6%
Structure (SMILES) = Cc1nc(-c2ccccc2)c(-c2ccncc2)o1; result = 105%
Structure (SMILES) = O=S(=O)(c1cccc2cnccc12)N1CCCNCC1; result = 108%
Structure (SMILES) = O=C(CCCc1ccc(-c2ccccc2F)cc1)Nc1ccc(O)cc1; result = 101%

Series 3
Cell line: mouse MPNST tumor cells
Technique: high-content immunofluorescence imaging
Refers to: nuclear SOX9
Concentration: 10 µM
Time: 12 h
Setting: mean of 2 replicates
Relative to: DMSO control
Reading: higher = more nuclear SOX9
Quantity: nuclear SOX9 intensity
Compound = COc1cc2c(cc1OC)CC(=O)N(CCCN(C)C[C@H]1Cc3cc(OC)c(OC)cc31)CC2; result = 98.1 % of DMSO
Compound = COc1ccc(N(C)c2nc(C)nc3ccccc23)cc1; result = 225 % of DMSO
Compound = Cc1ccc(-n2nc(C(C)(C)C)cc2NC(=O)Nc2ccc(OCCN3CCOCC3)c3ccccc23)cc1; result = 119 % of DMSO
Compound = CC(CCc1ccccc1)NCC(O)c1ccc(O)c(C(N)=O)c1 (stereo not drawn); result = 113 % of DMSO
Compound = Nc1nc(=O)[nH]cc1F; result = 96.5 % of DMSO

Series 4
Species: mouse
Medium: microsomes or S9
Concentration: 2 µM
Time: 0.5 h
Quantity: remaining compound
Structure (SMILES) = CC(C)(C)c1n[nH]c(C2CN(C(=O)C3CCOC3)CCO2)n1 (stereo not drawn); result = > 100%
Structure (SMILES) = COC(=O)c1ccc(-c2nc3c(N)nc(S(C)(=O)=O)nc3n2C)cc1; result = 22.8%
Structure (SMILES) = CC(=O)O[C@@H]1CC2C(C)(CC[C@H](O)C2(C)C)C2CC[C@]3(C)C(=CC(=O)O[C@H]3c3ccoc3)C21C (stereo partly drawn); result = 3.69%
Structure (SMILES) = CC(C)(C)NC(=O)Cn1c(=O)n(-c2ccccc2F)c(=O)c2sccc21; result = 50.1%
Structure (SMILES) = CCCCC/N=c1\n(C)c(=O)nc2sccn12; result = 1.82%

Excerpt of the above (series 2):
Structure (SMILES) = CO[C@H]1C[C@@H]2CC[C@@H](C)[C@@](O)(O2)C(=O)C(=O)N2CCCC[C@H]2C(=O)O[C@H]([C@H](C)C[C@@H]2CC[C@@H](O)[C@H](OC)C2)CC(=O)[C@H](C)/C=C(\C)[C@@H](O)[C@@H](OC)C(=O)[C@H](C)C[C@H](C)/C=C/C=C/C=C/1C; result = 97.3%
Structure (SMILES) = COc1ccc(OC)c2c(=S)c3ccccc3[nH]c12; result = 93.6%
